Published values collected from several papers.
Lines come from different studies, so protocols differ. Numbers after ± are the reported error.
Cell line: HeLa

| SMILES | assay | setting | how to read | quantity | value |
| --- | --- | --- | --- | --- | --- |
| O=C(CN1CCCC1)NNc1ccccc1Sc1cc(Cl)ccc1[N+](=O)[O-] | – | – | – | CC50 | 60 µM |
| CC(C)C[C@H](NC(=O)[C@@H]1CCCN1C(=O)CCOCCOCCOCCOCCOCCOCCOCCOCCNC(=S)Nc1ccc2c(c1)C(=O)OC21c2ccc(O)cc2Oc2cc(O)ccc21)C(=O)N[C@@H](Cc1cncn1CCCCCCCCc1ccccc1)C(=O)N[C@@H](CO)C(=O)N[C@H](C(N)=O)[C@@H](C)CP(=O)(O)O | confocal microscopy | 200 µM, 7 h | – | cellular uptake | < 0.4% |
| CC[C@H](C)[C@@H]1NC(=O)[C@H](C)NC(=O)[C@H](C)NC(=O)[C@H]([C@@H](C)O)NC(=O)[C@H](Cc2ccccc2)NC(=O)[C@@H]2CSSC[C@@H]3NC(=O)[C@H](C(C)C)NC(=O)[C@H](CCCCN)NC(=O)[C@H](CO)NC(=O)[C@H](CCCCN)NC(=O)[C@@H]4CSSC[C@H](NC(=O)[C@H](CO)NC(=O)[C@H](CCC(=O)O)NC(=O)CNC(=O)[C@H](CSSC[C@H](NC(=O)CNC1=O)C(=O)N[C@@H](CO)C(=O)N4)NC(=O)[C@@H]1CCCN1C(=O)[C@H](Cc1ccccc1)NC(=O)[C@H](C)NC(=O)[C@H](CC(N)=O)NC(=O)[C@H](CCCCN)NC(=O)[C@H](Cc1ccc(O)cc1)NC3=O)C(=O)N[C@@H](C(C)C)C(=O)N[C@@H](Cc1ccc(O)cc1)C(=O)N[C@@H](CC(C)C)C(=O)N1CCC[C@H]1C(=O)N2 | resazurin | 24 h | – | CC50 | 0.69 ± 0.02 µM |
| NCCCC[C@H](NC(=O)[C@H](CCCCN)NC(=O)[C@H](Cc1ccccc1)NC(=O)[C@H](Cc1ccccc1)NC(=O)CCCc1ccc2ccc3cccc4ccc1c2c34)C(N)=O | MTT | concentration not given, 24 h, normoxia | – | cytotoxicity | not toxic |
| O=C1/C(=N\NC(=S)NN=Cc2cccs2)c2ccccc2N1Cc1ccccc1 | cell morphology | – | – | minimum cytotoxic concentration | 20 µM |
| CC[C@H](C)[C@@H]1NC(=O)[C@H](C)NC(=O)[C@H](C)NC(=O)[C@H]([C@@H](C)O)NC(=O)[C@H](Cc2ccccc2)NC(=O)[C@@H]2CSSC[C@@H]3NC(=O)[C@H](C)NC(=O)[C@H](CCCCN)NC(=O)[C@H](CO)NC(=O)[C@H](CCCCN)NC(=O)[C@@H]4CSSC[C@H](NC(=O)[C@H](CO)NC(=O)[C@H](CCC(=O)O)NC(=O)CNC(=O)[C@H](CSSC[C@H](NC(=O)CNC1=O)C(=O)N[C@@H](CO)C(=O)N4)NC(=O)[C@@H]1CCCN1C(=O)[C@H](Cc1ccccc1)NC(=O)CNC(=O)[C@H](CC(N)=O)NC(=O)[C@H](CCCCN)NC(=O)[C@H](Cc1ccc(O)cc1)NC3=O)C(=O)N[C@@H](C(C)C)C(=O)N[C@@H](Cc1ccc(O)cc1)C(=O)N[C@@H](CC(C)C)C(=O)N1CCC[C@H]1C(=O)N2 | resazurin | 24 h | – | CC50 | 4.76 ± 0.7 µM |
| CN(C)c1ccc2c(c1)Oc1cc(N(C)C)ccc1C21OC(=O)c2cc(C(=O)NCCCC[C@H](NC(=O)[C@@H](N)CSSC[C@H](N)C(=O)N[C@@H](CCCCNC(=O)c3ccc4c(c3)C(=O)OC43c4ccc(N(C)C)cc4Oc4cc(N(C)C)ccc43)C(=O)N[C@@H](CCCNC(=N)N)C(=O)N[C@@H](CCCNC(=N)N)C(=O)N[C@@H](CCCNC(=N)N)C(=O)N[C@@H](CCCNC(=N)N)C(=O)N[C@@H](CCCNC(=N)N)C(=O)N[C@@H](CCCNC(=N)N)C(=O)N[C@@H](CCCNC(=N)N)C(=O)N[C@@H](CCCNC(=N)N)C(=O)NCC(N)=O)C(=O)N[C@@H](CCCNC(=N)N)C(=O)N[C@@H](CCCNC(=N)N)C(=O)N[C@@H](CCCNC(=N)N)C(=O)N[C@@H](CCCNC(=N)N)C(=O)N[C@@H](CCCNC(=N)N)C(=O)N[C@@H](CCCNC(=N)N)C(=O)N[C@@H](CCCNC(=N)N)C(=O)N[C@@H](CCCNC(=N)N)C(=O)NCC(N)=O)ccc21 | – | 5 µM, 1 h | – | SYTOX Blue-positive cells | 13% |
| CCCCCCCCCCCCCC(=O)N[C@@H](CCCNC(=N)N)C(=O)N[C@@H](CCCNC(=N)N)C(=O)N[C@@H](CCCNC(=N)N)C(N)=O | MTS | 100 µM | – | cytotoxicity | toxic |
| COc1cccc(NCC(C)(O)Cn2c3ccc(Br)cc3c3cc(Br)ccc32)c1 (stereo not shown) | CellTiter-Glo | 48 h | – | GI50 | 10.9 µM |
| N=C(N)NCCC[C@@H]1NC(=O)[C@H](Cc2csc3ccccc23)NC(=O)[C@@H](Cc2ccccc2)NC(=O)[C@H](Cc2ccccc2)NC(=O)[C@H](CCC(=O)NCCOCCOCC(=O)N[C@@H](CCCCNC(=O)c2ccc3c(c2)C(=O)OC32c3ccc4cc(O)ccc4c3Oc3c2ccc2cc(O)ccc32)C(N)=O)NC(=O)[C@@H](CCCNC(=N)N)NC(=O)[C@H](CCCNC(=N)N)NC(=O)[C@@H](CCCNC(=N)N)NC1=O | flow cytometry | 5.0 µM, 2 h, 10% FBS | reference: CPP12 | cellular uptake | 98 ± 11% |
| CC[C@H](C)[C@@H]1NC(=O)[C@H](C)NC(=O)[C@H](C)NC(=O)[C@H]([C@@H](C)O)NC(=O)[C@H](Cc2ccccc2)NC(=O)[C@@H]2CSSC[C@@H]3NC(=O)[C@H](C(C)C)NC(=O)[C@H](CCCCN)NC(=O)[C@H](CO)NC(=O)[C@H](C)NC(=O)[C@@H]4CSSC[C@H](NC(=O)[C@H](CO)NC(=O)[C@H](CCC(=O)O)NC(=O)CNC(=O)[C@H](CSSC[C@H](NC(=O)CNC1=O)C(=O)N[C@@H](CO)C(=O)N4)NC(=O)[C@@H]1CCCN1C(=O)[C@H](Cc1ccccc1)NC(=O)CNC(=O)[C@H](CC(N)=O)NC(=O)[C@H](CCCCN)NC(=O)[C@H](Cc1ccc(O)cc1)NC3=O)C(=O)N[C@@H](C(C)C)C(=O)N[C@@H](Cc1ccc(O)cc1)C(=O)N[C@@H](CC(C)C)C(=O)N1CCC[C@H]1C(=O)N2 | resazurin | 24 h | – | CC50 | 1.54 ± 0.08 µM |
| CC=C(C)C(=O)OC1C(O)C2OC(COC(=O)CCC(=O)CCCCCCC(CCCCC)OC3OC(C)C(O)C(O)C3O2)C1OC(=O)C=Cc1ccccc1 (stereo not shown) | cytotoxicity | – | – | IC50 | 0.133 µM |
| CC[C@H](C)[C@@H]1NC(=O)[C@H](C)NC(=O)[C@H](C)NC(=O)[C@H]([C@@H](C)O)NC(=O)[C@H](Cc2ccccc2)NC(=O)[C@@H]2CSSC[C@@H]3NC(=O)[C@H](C(C)C)NC(=O)[C@H](CCCCN)NC(=O)[C@H](CO)NC(=O)[C@H](CCCCN)NC(=O)[C@@H]4CSSC[C@H](NC(=O)[C@H](CO)NC(=O)[C@H](CCC(=O)O)NC(=O)CNC(=O)[C@H](CSSC[C@H](NC(=O)CNC1=O)C(=O)N[C@@H](CO)C(=O)N4)NC(=O)[C@@H]1CCCN1C(=O)[C@H](Cc1ccccc1)NC(=O)CNC(=O)[C@H](CC(N)=O)NC(=O)[C@H](CCCCN)NC(=O)[C@H](Cc1ccc(O)cc1)NC3=O)C(=O)N[C@@H](C(C)C)C(=O)N[C@@H](Cc1ccc(O)cc1)C(=O)N[C@@H](C)C(=O)N1CCC[C@H]1C(=O)N2 | resazurin | 24 h | – | CC50 | 8.64 ± 1.21 µM |
| CC(=O)Nc1ccc(-c2csc(NS(C)(=O)=O)n2)cc1 | resazurin | concentration not given | – | cytotoxicity | not toxic |
| CC[C@H](C)[C@@H]1NC(=O)[C@H](C)NC(=O)[C@H](C)NC(=O)[C@H]([C@@H](C)O)NC(=O)[C@H](C)NC(=O)[C@@H]2CSSC[C@@H]3NC(=O)[C@H](C(C)C)NC(=O)[C@H](CCCCN)NC(=O)[C@H](CO)NC(=O)[C@H](CCCCN)NC(=O)[C@@H]4CSSC[C@H](NC(=O)[C@H](CO)NC(=O)[C@H](CCC(=O)O)NC(=O)CNC(=O)[C@H](CSSC[C@H](NC(=O)CNC1=O)C(=O)N[C@@H](CO)C(=O)N4)NC(=O)[C@@H]1CCCN1C(=O)[C@H](Cc1ccccc1)NC(=O)CNC(=O)[C@H](CC(N)=O)NC(=O)[C@H](CCCCN)NC(=O)[C@H](Cc1ccc(O)cc1)NC3=O)C(=O)N[C@@H](C(C)C)C(=O)N[C@@H](Cc1ccc(O)cc1)C(=O)N[C@@H](CC(C)C)C(=O)N1CCC[C@H]1C(=O)N2 | resazurin | 24 h | – | CC50 | 4.1 ± 0.39 µM |
| Oc1ccc(O)c2ccccc12 | – | 20 µM | – | cytotoxicity | not toxic |

Repeated from above:
| SMILES | assay | setting | how to read | quantity | value |
| --- | --- | --- | --- | --- | --- |
| O=C(CN1CCCC1)NNc1ccccc1Sc1cc(Cl)ccc1[N+](=O)[O-] | – | – | – | CC50 | 60 µM |
| CC(C)C[C@H](NC(=O)[C@@H]1CCCN1C(=O)CCOCCOCCOCCOCCOCCOCCOCCOCCNC(=S)Nc1ccc2c(c1)C(=O)OC21c2ccc(O)cc2Oc2cc(O)ccc21)C(=O)N[C@@H](Cc1cncn1CCCCCCCCc1ccccc1)C(=O)N[C@@H](CO)C(=O)N[C@H](C(N)=O)[C@@H](C)CP(=O)(O)O | confocal microscopy | 200 µM, 7 h | – | cellular uptake | < 0.4% |
